{"data": "Published values pooled from the literature", "organism": "Plasmodium falciparum", "note": "Lines come from different studies, so protocols differ. Numbers after ± are the reported error."}
{"Structure (SMILES)": "C[OH+][Cu-2]12[O]C(c3cn(-c4ccccc4)nc3-c3ccc(Cl)cc3)=N[N+]1=C(C)c1c(cc(C)oc1=O)[O]2 (stereo not drawn)", "test system": "3D7", "setting": "12.5 µg/mL, 72 h", "quantity": "parasitaemia suppression", "result": "78.3%"}
{"Structure (SMILES)": "CC(C)(C)OC(=O)CNC(=O)[C@H](CCC(=O)N(O)c1ccc(Br)cc1)NC(=O)CC[C@H](N)C(=O)OC(C)(C)C", "test": "parasite growth, imaging", "test system": "3D7", "setting": "48 h, blood stage", "quantity": "IC50", "result": "35 µM"}
{"Structure (SMILES)": "CC[C@H](C)[C@H](NC(=O)[C@@H](NC(=O)[C@H](Cc1ccc(O)cc1)NC(=O)[C@H](CCCCN)NC(=O)[C@H](CCCCN)NC(=O)[C@H](CC(C)C)NC(=O)[C@H](CC(=O)O)NC(=O)[C@H](Cc1ccc(O)cc1)NC(=O)[C@H](CCC(N)=O)NC(=O)[C@H](CCCCN)NC(=O)[C@@H](NC(=O)[C@H](Cc1ccccc1)NC(=O)[C@H](CCCCN)NC(=O)[C@H](CCCCN)NC(=O)[C@H](Cc1c[nH]c2ccccc12)NC(=O)[C@H](CCCCN)NC(=O)[C@H](CCSC)NC(=O)[C@H](CCCNC(=N)N)NC(=O)[C@H](CCCNC(=N)N)NC(=O)[C@H](CC(N)=O)NC(=O)[C@H](CCC(N)=O)NC(=O)[C@H](Cc1ccccc1)NC(=O)[C@H](Cc1c[nH]c2ccccc12)NC(=O)[C@@H](NC(=O)[C@H](CCCCN)NC(=O)[C@@H](NC(=O)[C@H](CCC(N)=O)NC(=O)[C@@H](N)CCCNC(=N)N)[C@@H](C)CC)[C@@H](C)CC)[C@@H](C)CC)[C@@H](C)CC)C(=O)O", "setting": "90 µM, 16 h", "quantity": "TUNEL-positive parasites", "result": "~90%"}
{"Structure (SMILES)": "CCOC(=O)c1cn(-c2nc(C(F)(F)F)n[nH]2)nn1", "test": "parasite growth", "test system": "NF54", "setting": "1 µM, gametocyte", "quantity": "inhibition", "result": "> 75%"}
{"Structure (SMILES)": "Cc1cc2[nH]c(C(=O)Nc3ccccc3C)c(CN3CCOCC3)c2s1", "test": "parasite growth, [3H]-hypoxanthine incorporation", "test system": "asexual erythrocytic stages, 3D7", "setting": "50 µM, 48 h", "quantity": "inhibition", "result": "42%"}
{"Structure (SMILES)": "CN(C)Cc1cc(/C=C/C(=O)c2ccc(Cl)cc2)ccc1O", "test": "pLDH", "test system": "3D7", "scale": "relative to: compound over chloroquine", "quantity": "EC50 ratio", "result": "~1400 fold"}
{"Structure (SMILES)": "CC(=O)O[C@@H]1C[C@H]2C(C)(C)C(=O)C=C[C@]2(C)[C@H]2CC[C@]3(C)C(=CC[C@H]3C3=CC(O)OC3=O)[C@@]21C (stereo partly drawn)", "test": "parasite growth", "test system": "D6 and W2", "setting": "concentration not given", "quantity": "antiplasmodial activity class", "result": "active"}
{"Structure (SMILES)": "CCN(CC)c1ccc2nc3c4ccccc4/c(=N/c4ccncc4)cc-3oc2c1", "test system": "NF54", "setting": "7.81 ng/mL, 6 h, rings, trophozoites, schizonts", "scale": "relative to: untreated", "quantity": "remaining growth", "result": "100%"}
{"Structure (SMILES)": "COc1ccc(-c2cn(C3CCCC3)c3ncnc(N)c23)cc1", "setting": "invasion IC50, ring stage", "quantity": "intracellular growth", "result": "no effect"}
{"Structure (SMILES)": "Cc1ccc(CNC(=O)[C@H](CCCCNC(=O)OCc2ccccc2)NC(=O)[C@H](CC2CCCCC2)NC(=O)Cc2cccnc2)cc1", "test system": "D10", "setting": "72 h", "scale": "relative to: HFF EC50 over P. falciparum EC50", "quantity": "selectivity ratio", "result": "> 24"}
{"Structure (SMILES)": "COc1cc(O)c(-c2cc(-c3cc(-c4c(O)cc5c(c4OC)[C@H](C)N[C@H](C)C5)c4cc(C)cc(OC)c4c3O)c(O)c3c(OC)cc(C)cc23)c2c1[C@H](C)N[C@H](C)C2", "test": "gametocyte viability, luciferase reporter", "test system": "NF54-Pfs16-GFP-Luc, early stage II/III", "setting": "5 µM, 48 h", "quantity": "inhibition", "result": "> 70%"}
{"Structure (SMILES)": "C[OH+][Cu-2]12[O]C(c3cn(-c4ccccc4)nc3-c3ccccc3)=N[N+]1=C(C)c1c(cc(C)oc1=O)[O]2 (stereo not drawn)", "test system": "3D7", "setting": "12.5 µg/mL, 72 h", "quantity": "parasitaemia", "result": "0%"}
{"Structure (SMILES)": "CCc1c(-c2ccc[nH]2)c[nH]c1C=NC12CC3CC(CC(C3)C1)C2", "test": "parasite growth, SYBR Green I fluorescence", "test system": "D6, chloroquine-sensitive", "quantity": "IC50", "result": "> 2.5 µM"}
{"Structure (SMILES)": "CC[C@H](C)[C@@H]1NC(=O)[C@H](CCCCN)NC(=O)[C@H](CCCCN)NC(=O)[C@H](Cc2ccc(O)cc2)NC(=O)[C@H](CC(C)C)NC(=O)[C@@H]2CCCN2C(=O)[C@H](C)NC(=O)CNC(=O)CNC(=O)[C@H](CO)NC(=O)CNC(=O)CNC(=O)[C@H](CO)NC(=O)[C@H](CCC(=O)O)NC(=O)[C@H](CC(C)C)NC(=O)[C@H](CC(C)C)NC(=O)[C@H](CCCCN)NC(=O)[C@H](CCCCN)NC(=O)[C@H]([C@@H](C)CC)NC(=O)[C@H]([C@@H](C)CC)NC(=O)[C@H](CCCCN)NC(=O)[C@H](CCCCN)NC(=O)[C@H](Cc2ccc(O)cc2)NC(=O)[C@H](CC(C)C)NC(=O)[C@@H]2CCCN2C(=O)[C@H](C)NC(=O)CNC(=O)[C@@H]2CSSC[C@H](NC(=O)[C@H](CC(C)C)NC(=O)[C@H](CCCCN)NC(=O)[C@H](CCCCN)NC(=O)[C@H]([C@@H](C)CC)NC1=O)C(=O)N[C@@H](CCC(N)=O)C(=O)N[C@@H](CC(N)=O)C(=O)NCC(=O)N2", "test system": "3D7", "setting": "5 mg/mL Albumax II", "scale": "relative to: RBC HC10 over P. falciparum IC50", "quantity": "selectivity index", "result": "> 7"}
{"Structure (SMILES)": "Cc1ccc(NCC(=O)Nc2ccc(F)c(Cl)c2)cc1CN1CCOCC1", "test": "parasite growth", "test system": "3D7", "setting": "blood stage", "quantity": "EC50", "result": "> 50 µM"}
{"Structure (SMILES)": "Cc1ccc(CNC(=O)[C@@H]2Cc3cccc(c3)Oc3cccc(c3)C[C@H](N)C(=O)N[C@@H](CCc3ccccc3)C(=O)N2)cc1", "setting": "1 h pulse, synchronized schizont stage", "quantity": "EC50", "result": "1.02 µM"}
{"Structure (SMILES)": "COc1cc(O)c(-c2cc(-c3cc(-c4c(O)cc(OC)c5c4C[C@@H](C)N[C@@H]5C)c4cc(C)cc(OC)c4c3O)c(O)c3c(OC)cc(C)cc23)c2c1[C@@H](C)N[C@H](C)C2", "test": "gametocyte viability, luciferase reporter", "test system": "NF54-Pfs16-GFP-Luc, late stage IV/V", "setting": "5 µM, 48 h", "quantity": "inhibition", "result": "> 70%"}
{"Structure (SMILES)": "Clc1ccc2c(c1)nc(N1CCNCC1)n2CC1CCCCC1", "test": "pLDH", "test system": "NF54", "setting": "concentration not given, 48 h", "quantity": "antiplasmodial activity", "result": "inactive"}
{"Structure (SMILES)": "C[OH+][Cu-2]12[O]C(c3cn(-c4ccccc4)nc3-c3ccc(F)cc3)=N[N+]1=C(C)c1c(cc(C)oc1=O)[O]2 (stereo not drawn)", "test system": "3D7", "setting": "100 µg/mL, 72 h", "quantity": "parasitaemia", "result": "0%"}
{"Structure (SMILES)": "CCCCN1C(=O)c2ccc3c4c(ccc(c24)C1=O)C(=O)N(CCNc1c2ccc(Cl)cc2nc2ccc(OC)cc12)C3=O", "test": "parasite growth, SYBR Green", "test system": "3D7", "setting": "50 nM, 12 h, blood stage", "quantity": "inhibition", "result": "~80%"}
{"Structure (SMILES)": "CC[C@H](C)[C@@H]1NC(=O)[C@H](CCCCN)NC(=O)[C@H](CCCCN)NC(=O)[C@H](Cc2ccc(O)cc2)NC(=O)[C@H](CC(C)C)NC(=O)[C@@H]2CCCN2C(=O)[C@H](C)NC(=O)CNC(=O)CNC(=O)[C@H](CO)NC(=O)CNC(=O)CNC(=O)[C@H](CO)NC(=O)[C@H](CCC(=O)O)NC(=O)[C@H](CC(C)C)NC(=O)[C@H](CC(C)C)NC(=O)[C@H](CCCCN)NC(=O)[C@H](CCCCN)NC(=O)[C@H]([C@@H](C)CC)NC(=O)[C@H]([C@@H](C)CC)NC(=O)[C@H](CCCCN)NC(=O)[C@H](CCCCN)NC(=O)[C@H](Cc2ccc(O)cc2)NC(=O)[C@H](CC(C)C)NC(=O)[C@@H]2CCCN2C(=O)[C@H](C)NC(=O)CNC(=O)[C@@H]2CSSC[C@H](NC(=O)[C@H](CC(C)C)NC(=O)[C@H](CCCCN)NC(=O)[C@H](CCCCN)NC(=O)[C@H]([C@@H](C)CC)NC1=O)C(=O)N[C@@H](CCC(=O)O)C(=O)N[C@@H](CO)C(=O)NCC(=O)N2", "test system": "3D7", "setting": "5 mg/mL Albumax II", "scale": "relative to: RBC HC10 over P. falciparum IC50", "quantity": "selectivity index", "result": "3.6 ± 0.4"}
{"Structure (SMILES)": "COCn1ccc(NCCNCCCOc2ccc3c(NCCCc4ccccc4)ncnc3c2)nc1=O", "test": "DNA methylation", "test system": "Plasmodium falciparum nuclear extract", "setting": "32 µM", "quantity": "inhibition", "result": "inactive"}
{"Structure (SMILES)": "CC[C@H](C)[C@@H]1NC(=O)[C@H](CCCCN)NC(=O)[C@H](CCCCN)NC(=O)[C@H](Cc2ccc(O)cc2)NC(=O)[C@H](CC(C)C)NC(=O)[C@@H]2CCCN2C(=O)[C@H](C)NC(=O)CNC(=O)CNC(=O)[C@H](CO)NC(=O)CNC(=O)CNC(=O)[C@H](CC(N)=O)NC(=O)[C@H](CCC(=O)O)NC(=O)[C@H](CC(C)C)NC(=O)[C@H](CC(C)C)NC(=O)[C@H](CCCCN)NC(=O)[C@H](CCCCN)NC(=O)[C@H]([C@@H](C)CC)NC(=O)[C@H]([C@@H](C)CC)NC(=O)[C@H](CCCCN)NC(=O)[C@H](CCCCN)NC(=O)[C@H](Cc2ccc(O)cc2)NC(=O)[C@H](CC(C)C)NC(=O)[C@@H]2CCCN2C(=O)[C@H](C)NC(=O)CNC(=O)CNC(=O)[C@H](CO)NC(=O)CNC(=O)CNC(=O)[C@H](CC(N)=O)NC(=O)[C@H](CCC(=O)O)NC(=O)[C@H](CC(C)C)NC(=O)[C@H](CC(C)C)NC(=O)[C@H](CCCCN)NC(=O)[C@H](CCCCN)NC(=O)[C@H]([C@@H](C)CC)NC1=O", "test system": "3D7", "setting": "5 mg/mL Albumax II", "scale": "relative to: RBC HC10 over P. falciparum IC50", "quantity": "selectivity index", "result": "12.7 ± 2.7"}
{"Structure (SMILES)": "CC(C)C1=CC(=CNC2CCCCCC2)N=C1c1ccc[nH]1", "test": "parasite growth, SYBR Green I fluorescence", "test system": "D6, chloroquine-sensitive", "quantity": "IC50", "result": "> 2.5 µM"}
{"Structure (SMILES)": "Cc1ccc(CNC(=O)[C@H](CCc2ccccc2)NC(=O)[C@H](CCc2ccccc2)NC(=O)[C@@H](N)Cc2ccncc2)cc1", "test system": "D10", "setting": "72 h", "scale": "relative to: HFF EC50 over P. falciparum EC50", "quantity": "selectivity ratio", "result": 189}
{"Structure (SMILES)": "COc1cc2nc(N3CCCN(C)CC3)nc(SC3CCN(Cc4ccccc4)CC3)c2cc1OC", "test system": "HepG2, 3D7", "scale": "relative to: HepG2 IC50 over Pf3D7 IC50", "quantity": "selectivity ratio", "result": 6.7}
{"Structure (SMILES)": "CCCCN=Cc1[nH]c(-c2ccc[nH]2)cc1OC", "test": "parasite growth, SYBR Green I fluorescence", "test system": "D6, chloroquine-sensitive", "quantity": "IC50", "result": "0.21 µM"}
{"Structure (SMILES)": "Cc1ccc(NCC(=O)Nc2ccc(F)c(Cl)c2)cc1S(=O)(=O)N1CC2CC1CO2 (stereo not drawn)", "test": "parasite growth", "test system": "3D7", "setting": "blood stage", "quantity": "EC50", "result": "0.64 µM"}
{"Structure (SMILES)": "Clc1ccc(C2=CC(c3ccc[nH]3)=NC2=CNC2CCCCCC2)cc1", "test": "parasite growth, SYBR Green I fluorescence", "test system": "D6, chloroquine-sensitive", "quantity": "IC50", "result": "0.963 µM"}
{"Structure (SMILES)": "CN1CCC[C@@H]1C(=O)N[C@@H](Cc1ccc(-c2ccccc2)cc1)B(O)O", "test system": "Pf3D7 0087/N9, SCID mouse", "setting": "oral, 50 mg/kg, daily for 4 days", "scale": "relative to: untreated", "quantity": "parasitaemia reduction", "result": "~98%"}
{"Structure (SMILES)": "O=C(CNc1cccc(S(=O)(=O)N2CCOCC2)c1)Nc1ccc(F)c(Cl)c1", "test": "parasite growth", "test system": "3D7", "setting": "blood stage", "quantity": "EC50", "result": "11 µM"}
{"Structure (SMILES)": "C[OH+][Cu-2]12[O]C(c3cn(-c4ccccc4)nc3-c3ccc(C)cc3)=N[N+]1=C(C)c1c(cc(C)oc1=O)[O]2 (stereo not drawn)", "test system": "3D7", "setting": "100 µg/mL, 72 h", "quantity": "parasitaemia", "result": "0%"}
{"Structure (SMILES)": "CNC(=O)[C@@H]1Cc2c([nH]c3ccccc23)[C@@H](c2ccc(Cl)cc2Cl)N1", "test system": "schizont stage", "setting": "1 µM, 2 h", "scale": "relative to: untreated", "quantity": "CDP-ME level reduction", "result": "93 ± 5%"}
